Assay results of several laboratories.
Each numbered part is a random draw from the data of one study; scales do not carry over between parts. Positions count from the first letter of the parent shown.

Sample 1
Target: Interferon regulatory factor 5, full length, phosphomimetic (IRF5, Homo sapiens, UniProt Q13568-2, residues 1-514, K96S/S451D/S453D/S456D/S462D)
Method: protein-binding microarray
Molecule type: double-stranded DNA, one strand shown
Sample: in vitro
Concentration: 250 nM
Notes: 60-bp whole probe
Together with: salmon DNA 0.4 mg/ml
Reference: random background probes
Reading: higher = stronger binding
Shared flanks, not repeated: GCCTAGCAC … GTCTTGATTCGCTTGACGCTGCTG
| Sequence | log fluorescence |
| --- | --- |
| TCATTTTGCACTCTCTAACTGTGCTAG | 0.692 z-score |
| TCAGGACTGACTCTTCAGACTGTGCTA | -0.901 z-score |
| TCAAGAATGTCCTTTCTCACTGTGCTA | 0.733 z-score |
| GACGGTCTCGGTATCGGGGCGTGCTAG | 0.72 z-score |
| ATTTCTTTCTAATTCAAAGTGTGCTAG | 2.41 z-score |
| GACGATTTCAGTCTCCAGACGTGCTAG | 0.85 z-score |
| GACGGACTGCTAATCCTGACGTGCTAG | -0.491 z-score |
| TCATATATCATTTAATTACTGTGCTAG | 1.58 z-score |
| TCATTTTTTTTTTTTGGACTGTGCTAG | 0.712 z-score |
| TGCTTTCTTTAACTCATTTTGTGCTAG | 2.67 z-score |
| GACGGTTTCGACAGTGGGGACGTGCTA | 4.48 z-score |
| GACGATATCGGGACCGGAGACGTGCTA | 1.21 z-score |
| CACGGTATCGGTTTCGGGACGTGCTAG | 8.41 z-score |
| CACAGTCTGAGATCCAGAAGGTGCTAG | -0.489 z-score |
| GACGATATCAGTTTCTAGACGTGCTAG | 2.57 z-score |
| GACGGTTTCATACTGCTGACGTGCTAG | 1.53 z-score |
| TAAGGACTGGGTATCGGTTAGTGCTAG | 4.28 z-score |
| GACGGACTTGGTATCGGGACGTGCTAG | 1.07 z-score |
| CTGTCTGAGGACACCCTGGCGTGCTAG | -0.52 z-score |

Sample 2
Target: Fragile X messenger ribonucleoprotein 1, C-terminal low-complexity region (Fmr1, Mus musculus, UniProt P35922)
Method: RNA Bind-n-Seq
Molecule type: RNA
Sample: in vitro
Concentration: 200 nM
Notes: whole 134-nt RNA, ends assumed
Together with: 150 mM LiCl
Reference: input library
Reading: higher = stronger binding
All molecules: 7-deaza-guanosine replaces G
| Sequence | log2 enrichment |
| --- | --- |
| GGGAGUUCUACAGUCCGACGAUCUCCUGUGCUACACAUCGUAUGUACCGAAUCGGGGAAAAAGGGGAGGGGAAAAAAAGGGGAAAGUAUUAUGUUACGCCGUUCGGAUCUGCAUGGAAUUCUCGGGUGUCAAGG | 0.187 |
| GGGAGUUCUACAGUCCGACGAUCGUCCUGUGCUACACAUCGUAUGUACCGAAUCGGGGAAAGGGGAGGGGUUUUUUUGGGGAAAGUAUUAUGUUACGCCGUUCGGAUCUGCACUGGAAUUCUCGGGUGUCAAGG | 0.624 |
| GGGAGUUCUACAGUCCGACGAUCCACAGACAACACGCACCCACACAGACACAGAGGGAAGGGGUUGGGAUGGGGACAGAGUGCACAGCAGGGCGGGGUAGGACCCCAGCCCCUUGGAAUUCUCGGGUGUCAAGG | 0.117 |
| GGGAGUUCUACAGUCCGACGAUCUUAGGGUCAUGUGAAGGUGGUGCGCUACUUAGUCAAAGAAGUCAAUCAGUUUCCAUCAGAUUCUGAAUGUAUGAGAUACAUAGCAACCAUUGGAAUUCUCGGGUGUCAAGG | -1.79 |
| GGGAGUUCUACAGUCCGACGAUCAAGUCCUGUGCUACACAUCGUAUGUACCGAAUCGGGAGGGUUUUUUUGGGUUUGGGAAAGUAUUAUGUUACGCCGUUCGGAUCUGCACUUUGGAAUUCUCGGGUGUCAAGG | -1.79 |
| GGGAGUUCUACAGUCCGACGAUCUGGCCCUGGGGGCAUGCGGGGAGGAAGAGGUGGCCUCAUGGAUCGUGGUGGUCCCGGUGGAAUGUUCAGAGGUGGCCGUGGUGGAGACAGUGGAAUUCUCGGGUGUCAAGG | -0.56 |
| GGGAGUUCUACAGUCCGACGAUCACCAUGCAGGUGGGCAUCUUUGGGAAGUGGGGCAAGGGGGGGAUAGGGAGGGGGGUAACACUUUGGGAACAAAAGGUCCCAGGUCGUUUCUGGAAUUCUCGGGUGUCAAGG | 1.56 |
| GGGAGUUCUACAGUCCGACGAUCCCUCAAGUCCUGUGCUACACAUCGUAUGUACCGAAUCGGAGGGGAGGGGAGGGAAAGUAUUAUGUUACGCCGUUCGGAUCUGCACUUCCAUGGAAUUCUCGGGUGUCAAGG | -0.615 |

Sample 3
Target: ABI1, truncated, D143A, DHFR fusion (Arabidopsis thaliana)
Method: DHFR PCA, deep sequencing
Sample: yeast
Notes: methotrexate growth selection, single substitutions
Together with: (+)-ABA 710 µM
Reference: wild-type fitted maximum
Reading: higher = stronger binding
Starting sequence: PYL1, truncated, DHFR fusion (Arabidopsis thaliana); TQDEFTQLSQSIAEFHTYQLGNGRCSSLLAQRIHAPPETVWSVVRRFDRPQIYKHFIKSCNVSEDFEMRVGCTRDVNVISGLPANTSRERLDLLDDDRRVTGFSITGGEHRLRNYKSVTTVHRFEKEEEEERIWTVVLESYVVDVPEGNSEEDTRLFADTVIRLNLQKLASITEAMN; partner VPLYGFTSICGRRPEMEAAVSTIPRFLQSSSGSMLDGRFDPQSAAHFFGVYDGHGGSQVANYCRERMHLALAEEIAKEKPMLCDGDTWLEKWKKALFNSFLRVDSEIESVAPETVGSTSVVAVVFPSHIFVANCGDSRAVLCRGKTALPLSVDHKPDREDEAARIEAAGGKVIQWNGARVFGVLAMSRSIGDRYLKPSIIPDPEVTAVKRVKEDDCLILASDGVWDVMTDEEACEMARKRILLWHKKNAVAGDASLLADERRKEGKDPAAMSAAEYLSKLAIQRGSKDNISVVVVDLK
| Substitution | relative binding score [%] |
| --- | --- |
| C25K | 62 |
| P37H | 88.2 |
| S42R | 106 |
| F5V | 105 |
| V137N | 3.26 |
| I79T | 105 |
| R132Y | 103 |
| Y141A | 1.02 |
| Q31T | 73.4 |
| T173L | 92 |
| E147T | 99.4 |
| G81N | 58.9 |
| F47R | -2.85 |
| H122C | 80.1 |
| S80M | 36.3 |

Sample 4
Target: CCNF, cyclin fold, Cln2 fusion (human)
Method: yeast growth competition, sequencing
Sample: yeast
Notes: strong parent motif
Reference: not given
Reading: higher = stronger binding
Starting sequence: RB1 docking peptide (human); PKPLKKLRFDIEG
| Substitution | normalised enrichment score |
| --- | --- |
| P1T | 1.04 |
| K2D | 0.432 |
| L4S | 2.65 |
| L4H | 2.1 |
| E12T | 1.31 |
| P1C | 2.21 |
| D10S | 0.953 |
| P1G | 0.917 |
| K2A | 1.06 |
| I11Y | 0.944 |
| F9C | 0.528 |
| L7V | 0.871 |
| P3C | 5.15 |
| F9N | 1.14 |
| K2N | 0.525 |
| G13R | 2.07 |
| K6C | 1.22 |
| P1L | 2.07 |

For quick reference, copied from above (sample 3):
| Substitution | relative binding score [%] |
| --- | --- |
| F5V | 105 |
| V137N | 3.26 |
| I79T | 105 |
| R132Y | 103 |
| Y141A | 1.02 |
| Q31T | 73.4 |
| T173L | 92 |
| E147T | 99.4 |
